Results from different studies.
A part holds a random share of what one study measured.
UniProt P53350, sequence (whole entry, looked up): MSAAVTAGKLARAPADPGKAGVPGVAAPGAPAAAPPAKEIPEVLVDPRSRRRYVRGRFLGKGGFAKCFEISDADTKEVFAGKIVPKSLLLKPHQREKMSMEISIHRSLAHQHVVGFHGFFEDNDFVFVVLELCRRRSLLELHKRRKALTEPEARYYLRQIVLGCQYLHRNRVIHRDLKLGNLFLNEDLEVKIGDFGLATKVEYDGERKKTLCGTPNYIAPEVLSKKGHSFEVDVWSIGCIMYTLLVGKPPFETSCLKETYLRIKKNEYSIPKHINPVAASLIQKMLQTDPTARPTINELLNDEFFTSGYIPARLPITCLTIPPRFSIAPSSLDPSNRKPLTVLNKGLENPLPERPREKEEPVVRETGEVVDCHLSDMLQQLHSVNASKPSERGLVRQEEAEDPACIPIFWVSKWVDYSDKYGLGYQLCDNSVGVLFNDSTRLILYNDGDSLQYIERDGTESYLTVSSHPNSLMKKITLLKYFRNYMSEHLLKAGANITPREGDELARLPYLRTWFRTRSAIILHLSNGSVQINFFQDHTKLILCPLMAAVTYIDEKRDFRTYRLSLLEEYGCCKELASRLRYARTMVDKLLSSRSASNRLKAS
UniProt P29597, sequence (whole entry, looked up): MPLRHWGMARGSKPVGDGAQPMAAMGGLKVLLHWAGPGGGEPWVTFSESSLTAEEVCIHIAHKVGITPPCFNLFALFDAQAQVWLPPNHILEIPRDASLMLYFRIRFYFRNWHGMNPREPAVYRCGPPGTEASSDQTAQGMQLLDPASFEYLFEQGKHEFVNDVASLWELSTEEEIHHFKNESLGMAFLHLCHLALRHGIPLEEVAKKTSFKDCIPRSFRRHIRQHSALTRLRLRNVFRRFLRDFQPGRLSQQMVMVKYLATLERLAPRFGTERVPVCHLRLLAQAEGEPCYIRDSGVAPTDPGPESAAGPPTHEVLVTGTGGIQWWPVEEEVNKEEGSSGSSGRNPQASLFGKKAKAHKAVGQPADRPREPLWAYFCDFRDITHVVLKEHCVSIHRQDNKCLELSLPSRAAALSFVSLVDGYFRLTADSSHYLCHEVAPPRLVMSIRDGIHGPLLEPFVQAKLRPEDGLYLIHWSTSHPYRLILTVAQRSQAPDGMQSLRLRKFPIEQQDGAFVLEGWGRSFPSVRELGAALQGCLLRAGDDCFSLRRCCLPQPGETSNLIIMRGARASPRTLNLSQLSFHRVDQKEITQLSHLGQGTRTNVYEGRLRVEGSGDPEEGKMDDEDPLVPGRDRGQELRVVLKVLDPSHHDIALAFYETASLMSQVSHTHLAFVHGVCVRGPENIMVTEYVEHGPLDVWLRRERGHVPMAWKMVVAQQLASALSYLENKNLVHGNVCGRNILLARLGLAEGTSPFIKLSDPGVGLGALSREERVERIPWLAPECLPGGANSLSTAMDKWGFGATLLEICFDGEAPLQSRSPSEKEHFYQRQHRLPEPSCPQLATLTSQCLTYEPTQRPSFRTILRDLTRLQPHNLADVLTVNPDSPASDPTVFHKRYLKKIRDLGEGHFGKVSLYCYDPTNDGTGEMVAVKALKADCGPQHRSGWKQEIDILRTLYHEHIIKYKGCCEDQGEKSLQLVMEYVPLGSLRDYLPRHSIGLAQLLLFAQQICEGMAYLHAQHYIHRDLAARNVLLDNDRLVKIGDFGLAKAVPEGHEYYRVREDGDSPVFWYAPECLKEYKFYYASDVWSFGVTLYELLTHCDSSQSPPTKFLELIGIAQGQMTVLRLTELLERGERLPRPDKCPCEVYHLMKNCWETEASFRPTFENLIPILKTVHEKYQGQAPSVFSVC
UniProt P51956, sequence (whole entry, looked up): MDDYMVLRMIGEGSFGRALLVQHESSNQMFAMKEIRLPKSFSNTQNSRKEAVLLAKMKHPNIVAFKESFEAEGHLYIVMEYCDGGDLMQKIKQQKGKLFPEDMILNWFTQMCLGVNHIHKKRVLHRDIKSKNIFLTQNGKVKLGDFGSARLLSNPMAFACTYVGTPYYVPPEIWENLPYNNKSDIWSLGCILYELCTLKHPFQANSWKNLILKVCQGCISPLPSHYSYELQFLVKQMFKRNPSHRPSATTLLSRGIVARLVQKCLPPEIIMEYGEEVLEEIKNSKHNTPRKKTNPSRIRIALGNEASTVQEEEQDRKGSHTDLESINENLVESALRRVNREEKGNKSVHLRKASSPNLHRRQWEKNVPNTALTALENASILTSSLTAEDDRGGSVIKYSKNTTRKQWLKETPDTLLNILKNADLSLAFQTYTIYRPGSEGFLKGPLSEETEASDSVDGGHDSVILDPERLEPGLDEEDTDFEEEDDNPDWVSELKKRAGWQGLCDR

Set 1
Target: Calcium/calmodulin-dependent protein kinase type II subunit alpha (CAMK2A, Homo sapiens, UniProt Q9UQM7)
UniProt Q9UQM7, sequence (whole entry, looked up): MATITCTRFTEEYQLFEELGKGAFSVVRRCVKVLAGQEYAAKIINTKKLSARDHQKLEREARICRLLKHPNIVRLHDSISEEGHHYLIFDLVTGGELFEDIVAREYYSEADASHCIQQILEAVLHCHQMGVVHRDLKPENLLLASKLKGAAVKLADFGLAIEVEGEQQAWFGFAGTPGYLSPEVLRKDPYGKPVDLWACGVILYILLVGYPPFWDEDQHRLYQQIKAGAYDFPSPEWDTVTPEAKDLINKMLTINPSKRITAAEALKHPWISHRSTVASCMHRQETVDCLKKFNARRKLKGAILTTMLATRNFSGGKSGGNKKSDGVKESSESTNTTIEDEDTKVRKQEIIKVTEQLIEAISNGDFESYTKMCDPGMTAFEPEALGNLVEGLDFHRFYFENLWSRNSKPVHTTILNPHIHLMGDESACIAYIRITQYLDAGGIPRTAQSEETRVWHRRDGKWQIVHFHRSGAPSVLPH
Read-out: enzyme activity
Mode: inhibitor
Concentration: 10 µM
Measurement: inhibition
O=C(O)C#Cc1ccccc1: -59%
CC(=O)OC(C)C[N+](C)(C)C (stereo not drawn): 18%
CCCCC(CC)COC(=O)C(C#N)=C(c1ccccc1)c1ccccc1 (stereo not drawn): -12%
CC(C)=CCC/C(C)=C/CO: -4%
CCc1ccc(C(=O)C(C)CN2CCCCC2)cc1 (stereo not drawn): -2%
CCCCC[C@H](O)/C=C/[C@H]1C(=O)C[C@H](O)[C@@H]1C/C=C\CCCC(=O)O: -4%

Set 2
Compound: CO[C@H]1CC[C@H](CNc2ccc(S(=O)(=O)NC(=O)c3ccc(N4CCN(CC5=C(c6ccc(Cl)cc6)CC(C)(C)CC5)CC4)cc3Oc3cnc4[nH]ccc4c3)cc2[N+](=O)[O-])CC1
Read-out: cell-free assay
Method: competition with immobilised ligand
Concentration: 1 µM
Measurement: remaining binding
EGFR (Homo sapiens, UniProt P00533, del747-750/T751S): 65%
CDC42BPB (Homo sapiens, UniProt Q9Y5S2): 100%
FLT3 (Homo sapiens, UniProt P36888, D835V/ITD): 100%
Non-receptor tyrosine-protein kinase TYK2, JH1 (TYK2, Homo sapiens, UniProt P29597): 98%
MAP3K6 (Homo sapiens, UniProt O95382): 93%
NEK3 (Homo sapiens, UniProt P51956): 66%
MARK4 (Homo sapiens, UniProt Q96L34): 83%
PLK1 (Homo sapiens, UniProt P53350): 83%
EPHA7 (Homo sapiens, UniProt Q15375): 87%

Set 3
Target: Beta-1 adrenergic receptor (ADRB1, Homo sapiens, UniProt P08588)
UniProt P08588, sequence (whole entry, looked up): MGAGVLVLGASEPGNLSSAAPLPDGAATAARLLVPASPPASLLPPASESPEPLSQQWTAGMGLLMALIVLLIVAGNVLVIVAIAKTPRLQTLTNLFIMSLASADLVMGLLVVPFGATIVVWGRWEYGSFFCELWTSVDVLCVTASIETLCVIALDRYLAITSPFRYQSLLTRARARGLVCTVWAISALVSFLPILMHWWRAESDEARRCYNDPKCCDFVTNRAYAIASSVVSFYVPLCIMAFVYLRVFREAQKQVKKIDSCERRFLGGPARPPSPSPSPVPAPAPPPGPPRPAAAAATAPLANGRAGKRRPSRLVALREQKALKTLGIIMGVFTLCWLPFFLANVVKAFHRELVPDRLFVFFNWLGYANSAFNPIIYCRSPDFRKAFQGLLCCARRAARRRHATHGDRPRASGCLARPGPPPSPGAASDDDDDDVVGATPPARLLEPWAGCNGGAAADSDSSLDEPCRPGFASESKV
Mode: agonist
Measurement: EC50
O=C1c2cc(N3CCOCC3)nc(-c3cccc(O)c3)c2CN1CC(F)(F)F: ≥ 100 µM
O=c1cc(N2CCNCC2)nc2sc(C(F)(F)F)nn12: ≥ 100 µM
Clc1ccccc1C(c1ccccc1)N1CCNCC1 (stereo not drawn): ≥ 100 µM
O=C(Nc1cnc2ccccc2c1)c1cn(-c2ccccc2C(F)(F)F)nn1: ≥ 100 µM
CCNC(=O)Nc1ccc([C@@H](O)[C@H]2COCC(=O)N2Cc2ccccc2)cc1: ≥ 100 µM
CN(C)c1ccc(-c2nnnn2[C@H]2CO[C@H]3[C@@H]2OC[C@@H]3N[S+](=O)([O-])c2ccc3ccccc3c2)cc1: ≥ 100 µM

Set 4
Target: Macrophage-stimulating protein receptor (MST1R, Homo sapiens, UniProt Q04912)
UniProt Q04912, sequence (whole entry, looked up): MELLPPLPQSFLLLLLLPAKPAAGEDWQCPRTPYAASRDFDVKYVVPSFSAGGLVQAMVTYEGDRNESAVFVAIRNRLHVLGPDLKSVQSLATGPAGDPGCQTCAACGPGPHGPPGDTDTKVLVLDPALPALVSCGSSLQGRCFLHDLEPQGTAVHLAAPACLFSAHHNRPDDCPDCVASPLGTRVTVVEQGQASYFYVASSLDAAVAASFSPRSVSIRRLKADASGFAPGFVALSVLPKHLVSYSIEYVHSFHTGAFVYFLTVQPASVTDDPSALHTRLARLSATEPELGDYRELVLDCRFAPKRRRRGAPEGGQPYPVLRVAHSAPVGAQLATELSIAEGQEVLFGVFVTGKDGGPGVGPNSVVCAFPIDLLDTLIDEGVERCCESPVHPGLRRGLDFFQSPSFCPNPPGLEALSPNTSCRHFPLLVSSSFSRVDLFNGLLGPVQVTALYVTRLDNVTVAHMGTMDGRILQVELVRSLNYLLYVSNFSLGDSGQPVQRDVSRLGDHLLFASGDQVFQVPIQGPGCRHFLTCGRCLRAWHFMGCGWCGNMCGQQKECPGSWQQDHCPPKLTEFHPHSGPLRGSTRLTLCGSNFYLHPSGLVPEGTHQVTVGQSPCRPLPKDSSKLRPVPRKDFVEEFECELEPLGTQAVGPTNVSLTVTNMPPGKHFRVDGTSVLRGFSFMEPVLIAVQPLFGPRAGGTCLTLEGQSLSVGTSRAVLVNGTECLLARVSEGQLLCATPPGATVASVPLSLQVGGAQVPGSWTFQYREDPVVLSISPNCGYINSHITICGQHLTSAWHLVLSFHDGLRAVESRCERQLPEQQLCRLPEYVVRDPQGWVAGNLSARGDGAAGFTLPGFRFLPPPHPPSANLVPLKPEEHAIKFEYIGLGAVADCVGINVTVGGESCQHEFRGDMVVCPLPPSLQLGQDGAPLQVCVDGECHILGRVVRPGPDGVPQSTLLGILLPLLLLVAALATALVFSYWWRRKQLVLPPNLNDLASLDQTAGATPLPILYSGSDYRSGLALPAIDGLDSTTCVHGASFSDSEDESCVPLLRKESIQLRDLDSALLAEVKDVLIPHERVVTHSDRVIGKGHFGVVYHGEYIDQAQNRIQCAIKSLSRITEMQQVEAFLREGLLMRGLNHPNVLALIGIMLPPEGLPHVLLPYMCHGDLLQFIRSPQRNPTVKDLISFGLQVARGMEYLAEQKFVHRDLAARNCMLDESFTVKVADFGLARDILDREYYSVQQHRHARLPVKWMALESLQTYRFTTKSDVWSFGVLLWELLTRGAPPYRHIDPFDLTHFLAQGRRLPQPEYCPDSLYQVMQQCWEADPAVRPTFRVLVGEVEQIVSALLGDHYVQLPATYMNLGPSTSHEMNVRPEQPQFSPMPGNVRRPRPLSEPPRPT
Read-out: enzyme activity
Mode: inhibitor
Concentration: 0.5 µM
Baseline: control
Measurement: remaining activity
O=C(O)c1ccc2c3c1cccc3c(=O)n1c3ccccc3nc21: 100%
CO[C@H]1C[C@@H]2CC[C@@H](C)[C@@](O)(O2)C(=O)C(=O)N2CCCC[C@H]2C(=O)O[C@H]([C@H](C)C[C@@H]2CC[C@@H](O)[C@H](OC)C2)CC(=O)[C@H](C)/C=C(\C)[C@@H](O)[C@@H](OC)C(=O)[C@H](C)C[C@H](C)/C=C/C=C/C=C/1C: 97%
OCC(O)CCON=C1C(c2c(O)[nH]c3ccccc23)=Nc2ccccc21 (stereo not drawn): 101%
O=S(=O)(c1cccc2cnccc12)N1CCCNCC1: 92.7%
NCCNc1ncc(C(N)=O)c(Nc2cccc(C(F)(F)F)c2)n1: 91%
Oc1ccc(-c2nc(-c3ccncc3)c(-c3ccc(F)cc3)[nH]2)cc1: 102%
Cc1ccc(Nc2nccc(N(C)c3ccc4c(C)n(C)nc4c3)n2)cc1S(N)(=O)=O: 97.8%
O=c1c2ccccc2[nH]c(=S)n1CCN1CCC(=C(c2ccc(F)cc2)c2ccc(F)cc2)CC1: 103%
Cc1ccc(NC(=O)c2ccc(CN3CCN(C)CC3)cc2)cc1Nc1nc(-c2cccnc2)cs1: 104%
COc1cc2nccc(Oc3ccc(NC(=S)NC(=O)c4ccccc4C)cc3)c2cc1OC: 88.8%
Cn1sc(=O)n(Cc2ccccc2)c1=O: 101%
COc1ccc(C(=O)Nc2sc3c(c2C(N)=O)CCCC3)cc1OC: 105%
O=C(CCCc1ccc(-c2ccccc2F)cc1)Nc1ccc(O)cc1: 106%
Cc1nc(-c2ccccc2)c(-c2ccncc2)o1: 95.9%
CN(C)c1ccc(C=C2C(=O)Nc3ccccc32)cc1: 106%

A few entries again (set 1):
O=C(O)C#Cc1ccccc1: -59%
CCCCC(CC)COC(=O)C(C#N)=C(c1ccccc1)c1ccccc1 (stereo not drawn): -12%
CC(C)=CCC/C(C)=C/CO: -4%
CC(=O)OC(C)C[N+](C)(C)C (stereo not drawn): 18%
